Published values gathered from unrelated publications.
Parts stem from different laboratories: compare values within a part only. Substitutions count along the parent as printed.

Sample 1 — target: CCNE2, cyclin fold, Cln2 fusion (human); technique: yeast growth competition, sequencing; medium: yeast; notes: strong parent motif; reference: not given; direction: higher = stronger binding
Starting sequence: CDC25A docking peptide (human); PPHRRRLLFACSP
Substitution	normalised enrichment score
PPHRRRLLHACSP [F9H]	0.865
PPRRRRLLFACSP [H3R]	1.07
PPHRRRLLFACST [P13T]	2.52
PPHRRRLLFACPP [S12P]	2.03
KPHRRRLLFACSP [P1K]	2.31
PPHRRRQLFACSP [L7Q]	0.587
PPHRRCLLFACSP [R6C]	0.502
PPHRLRLLFACSP [R5L]	1.73
PPHRRRLSFACSP [L8S]	2.81
PPHRRWLLFACSP [R6W]	1.64

Sample 2 — target: ATF7, bZIP domain (human); technique: DHFR protein complementation; medium: yeast; reference: wild-type JUN-FOS pair; direction: higher = stronger binding
Notes: single substitutions, most at no-binding floor
Starting sequence: JUN, bZIP domain (human); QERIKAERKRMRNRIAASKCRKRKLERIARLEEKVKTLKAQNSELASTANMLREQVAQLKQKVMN; partner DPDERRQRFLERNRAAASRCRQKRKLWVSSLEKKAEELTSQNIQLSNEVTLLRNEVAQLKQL
Substitution	binding fitness
S43G	-1.05 natural log
V56Y	-1.46 natural log
E32F	-1.3 natural log
R30E	-0.559 natural log
N42D	-1.28 natural log
L38H	-1.47 natural log
I28L	-0.992 natural log
R53F	-1.53 natural log
L45R	-1.53 natural log
Q55A	-1.12 natural log
T48F	-1.21 natural log
L38Y	-1.38 natural log
K36H	-1.1 natural log

Sample 3 — technique: RNA Bind-n-Seq; molecule type: RNA; medium: in vitro; tested at: 365 nM; reference: no-protein control; direction: higher = stronger binding
Target: RNA binding protein fox-1 homolog 2, RRM domain, GST-SBP tag (RBFOX2, Homo sapiens, UniProt O43251-10, residues 100-194)
Notes: natural RNA segment, single round, ends assumed
Residues (chain): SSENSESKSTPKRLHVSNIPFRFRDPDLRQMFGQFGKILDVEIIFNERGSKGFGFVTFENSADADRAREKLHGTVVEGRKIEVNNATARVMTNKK
Oligonucleotide	RBNS enrichment (R)
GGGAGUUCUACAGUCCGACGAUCAUACUAUGUAUACUUGAGAAUCUUUAAGCAGCAAAUUAGUCAUUUGCAUGAAGCUCCAGGAUUACAGUAAACUAAAUCAGUGCAAAAUAAAGUUUAUUUUAUAAAAGAAAUGGAAUUCUCGGGUGCCAA	0.489
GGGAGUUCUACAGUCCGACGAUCCUGUUGAUGCUUCUUUGAAAAUCUUCGCUUGAUUUUGGCUGUAAAUCACCUACCCUGUUAAAUGCUGUUUAAUCCCAAGGAUGUAAGUUGAGGUGAGGUGUCUUCUCUGUUGGAAUUCUCGGGUGCCAA	0.344
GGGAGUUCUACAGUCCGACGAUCUCCAAGAGGGGACCUGUGGCCAGAUACUUUCCACUUUAGGCUCACAGGGUUGAGUUGCAAAAGCCACAGCUCUUUGUUCUGUGUGCACUUUCUUGGAGAACCCCAUUGUGUGGAAUUCUCGGGUGCCAA	0.354
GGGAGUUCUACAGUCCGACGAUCCUCAGUGAGUUGUAUAUUUAUACACCUGGCUUGAAGCCUUAAUUGUAUAUAAUGAUGCUUUUUAAAAAAUGCUAUUUGGAAGACUAUUUAUUUCUCGUGUAUAUAAUGUAUGGAAUUCUCGGGUGCCAA	0.5
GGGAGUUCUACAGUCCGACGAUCCUCCUAGCAGAGCUGUCUGUGCAGACUGUUUCUUAGGAGGCACAGCAAGCUCCAGGGAACCCUCUGUGCUUAUGAAGCUCGUCUGGUGGGCAACCCCAGCCCACUGGACAUGGAAUUCUCGGGUGCCAA	0.239
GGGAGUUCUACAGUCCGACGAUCGGCCUCUUAGGCCAGUGCCGGAGGAGGCAUGCUCCUCUUUCUAUGCCACAGAACAAACACUACUCUAGCAGAGCCUUUCUUGCACUUUAAAGUGAGAUUAAUUUAGCUGUUGGAAUUCUCGGGUGCCAA	0.497
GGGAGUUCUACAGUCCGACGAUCUUGUCUCUUUUCAACUUAUUUAAAUGACAGCACCUGAGAAGAGGAACCGUUUUACACUGGAUGUUUCUCAUGUAGAACAAGAAAUCUUUCUGGAAUUGAUGUUUACAUGUUGGAAUUCUCGGGUGCCAA	0.845
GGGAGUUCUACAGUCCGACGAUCAACACAAUCAGGUGUGGAUUGGUGCUACUUUGAACAAAAGGUCCCCCUGUGGUCUUUUGUUCAACAUUGUACAAUGUAGAACUCUGUCCAACACUAAUUUAUUUUGUCUUUGGAAUUCUCGGGUGCCAA	0.277
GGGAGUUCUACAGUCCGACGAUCCUGAGGCAGAAGGAGGUGAGCACUUAAUCCUUUGAGCCAUGCGGUCUCUUUUACAGUCUAGAAACUGUACAUAUAUGUGAAAAGGAAAAAAAACCCUAUAUAUAUAUAUUUGGAAUUCUCGGGUGCCAA	0.967
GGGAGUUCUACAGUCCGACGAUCCCAAAAAGUCACCUCAGCAGCCUCCCCAGGCGAUACAGAGGGAGAGCCCAGACCACCACAGCUGGCCACGACAUUGCCCUUAAGUAAUAUGCAUUGGCCAGAGAGCCCGGUGGAAUUCUCGGGUGCCAA	0.364
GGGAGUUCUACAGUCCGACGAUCUACCUUGUGUUCCGGGAAUAACAUGAUACUAUUCAGAGGAGCCAGAAGUAAAGUUUAUUUCAUGGAUUAUUUAUGAGAGCUAAUUUAAGGAUGACUUUUUUUCUGAUUCAUGGAAUUCUCGGGUGCCAA	0.534
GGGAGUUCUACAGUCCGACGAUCAUUUCCCCACCGCGUUGUGUCUGCAGCUUCUUUGCCAAUAUAGUAAUGCUUUUAGUAGAGUACUAGAUAGUAUCAGUUUUGGAUUCUUAUUGUUAUCACCUAUGUACAAUUGGAAUUCUCGGGUGCCAA	1.01

Sample 4 — technique: protein-binding microarray; molecule type: double-stranded DNA, one strand shown; medium: in vitro; tested at: 2540 nM top; notes: 60-bp whole probe; with: salmon DNA 0.4 mg/ml; reference: random background probes; direction: higher = stronger binding; all sequences stand within: GCCTAGCAC … GTCTTGATTCGCTTGACGCTGCTG
Target: Interferon regulatory factor 3, full length, phosphomimetic (IRF3, Homo sapiens, UniProt Q14653, residues 1-427, S386D/S396D/S398D/S402D/T404D/S405D)
Residues (chain): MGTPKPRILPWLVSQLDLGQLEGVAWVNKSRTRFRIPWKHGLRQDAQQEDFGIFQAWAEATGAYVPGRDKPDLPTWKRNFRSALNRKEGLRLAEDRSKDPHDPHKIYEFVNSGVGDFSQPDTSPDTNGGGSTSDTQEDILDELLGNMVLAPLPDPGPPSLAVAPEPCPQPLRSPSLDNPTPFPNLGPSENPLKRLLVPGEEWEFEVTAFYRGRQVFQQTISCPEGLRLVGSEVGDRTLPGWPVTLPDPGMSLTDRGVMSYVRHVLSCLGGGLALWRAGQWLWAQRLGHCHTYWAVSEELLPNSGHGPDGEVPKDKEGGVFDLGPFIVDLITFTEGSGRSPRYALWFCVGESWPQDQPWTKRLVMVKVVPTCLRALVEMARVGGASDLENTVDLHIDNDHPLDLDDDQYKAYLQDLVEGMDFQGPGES
Oligonucleotide	fitted relative affinity
TCTCTTTTTGCTTTCTTTTAGTGCTAG	2.18 z-score
TTAGATCTCGGTATCGATTAGTGCTAG	1.09 z-score
TTCCAACTCTGTTTTCGCTTGTGCTAG	1.26 z-score
ATAGGTTTCCTTCTCCTTTAGTGCTAG	10.1 z-score
TCAACTAGGAGTTTTCAGACTGTGCTA	0.409 z-score
TCAGTCATCCATCTGAAACTGTGCTAG	0.317 z-score
TTACAACTGGGGACTGGATTAGTGCTA	-0.574 z-score
TTATATATCGGGTTTCGATTAGTGCTA	2.26 z-score
GACGGTTTCCTTCTCCGGACGTGCTAG	9.98 z-score
TCAAGTCTGGGCTACAACACTGTGCTA	-0.763 z-score
GACGGATTGGGGACTGGGGACGTGCTA	-0.651 z-score
TCAATGTTCCTTATTTAACTGTGCTAG	2.6 z-score
TTAGGTTGCGGGTTTCGGTTAGTGCTA	4.2 z-score
TTAGGTTACGGTTCCGGTTAGTGCTAG	2.85 z-score
GACGGTTCCAGTTTCGAGACGTGCTAG	4.36 z-score
GACGGACTGGGAGTGGGGACGTGCTAG	-0.723 z-score
CATTTTTTTTTTCTACTTCTGTGCTAG	2.43 z-score
GTCAGGGGTCTTGCTCTGTAGTGCTAG	-1.28 z-score
GACGGTATCGAACTGGGGACGTGCTAG	0.506 z-score
GACGGAGTGGGGACTGGGGACGTGCTA	-0.91 z-score
GCCGGACTGCTACTGCTGACGTGCTAG	-0.27 z-score

Sample 5 — technique: DHFR PCA, deep sequencing; medium: yeast; with: (+)-ABA 0.39 µM; reference: wild-type fitted maximum; direction: higher = stronger binding
Target: ABI1, truncated, D143A, DHFR fusion (Arabidopsis thaliana)
Notes: methotrexate growth selection, single substitutions
Starting sequence: PYL1, truncated, DHFR fusion (Arabidopsis thaliana); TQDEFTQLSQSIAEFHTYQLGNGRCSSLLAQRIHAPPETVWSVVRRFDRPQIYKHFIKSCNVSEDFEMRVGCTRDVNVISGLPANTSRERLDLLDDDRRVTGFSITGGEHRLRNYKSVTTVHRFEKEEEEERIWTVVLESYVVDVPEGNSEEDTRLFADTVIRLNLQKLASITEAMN; partner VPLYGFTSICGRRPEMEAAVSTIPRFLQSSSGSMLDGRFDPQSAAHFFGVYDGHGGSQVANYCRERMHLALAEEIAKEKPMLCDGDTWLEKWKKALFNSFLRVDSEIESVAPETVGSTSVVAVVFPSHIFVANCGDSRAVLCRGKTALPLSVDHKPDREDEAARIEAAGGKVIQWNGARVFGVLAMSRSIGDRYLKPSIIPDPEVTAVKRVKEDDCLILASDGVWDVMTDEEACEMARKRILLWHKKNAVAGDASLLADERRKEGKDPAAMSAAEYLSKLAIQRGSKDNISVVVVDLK
Substitution	relative binding score [%]
T154S	-7.69
K168H	45.5
Q7L	33.1
F56K	-7.54
I133K	30.1
H55Y	34.3
M176K	19.2
V43I	57.5
L82H	14.9
Q31C	4.81
I162D	7.65
G108Q	-8.61
L82E	-2.07
R111W	-0.00851
K168S	47.2
T106R	-3.71

Excerpt of the above (sample 3):
Oligonucleotide	RBNS enrichment (R)
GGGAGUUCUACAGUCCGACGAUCCUCAGUGAGUUGUAUAUUUAUACACCUGGCUUGAAGCCUUAAUUGUAUAUAAUGAUGCUUUUUAAAAAAUGCUAUUUGGAAGACUAUUUAUUUCUCGUGUAUAUAAUGUAUGGAAUUCUCGGGUGCCAA	0.5
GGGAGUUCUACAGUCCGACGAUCAUUUCCCCACCGCGUUGUGUCUGCAGCUUCUUUGCCAAUAUAGUAAUGCUUUUAGUAGAGUACUAGAUAGUAUCAGUUUUGGAUUCUUAUUGUUAUCACCUAUGUACAAUUGGAAUUCUCGGGUGCCAA	1.01
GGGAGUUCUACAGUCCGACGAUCCCAAAAAGUCACCUCAGCAGCCUCCCCAGGCGAUACAGAGGGAGAGCCCAGACCACCACAGCUGGCCACGACAUUGCCCUUAAGUAAUAUGCAUUGGCCAGAGAGCCCGGUGGAAUUCUCGGGUGCCAA	0.364
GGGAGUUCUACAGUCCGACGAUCUACCUUGUGUUCCGGGAAUAACAUGAUACUAUUCAGAGGAGCCAGAAGUAAAGUUUAUUUCAUGGAUUAUUUAUGAGAGCUAAUUUAAGGAUGACUUUUUUUCUGAUUCAUGGAAUUCUCGGGUGCCAA	0.534
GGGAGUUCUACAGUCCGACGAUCUUGUCUCUUUUCAACUUAUUUAAAUGACAGCACCUGAGAAGAGGAACCGUUUUACACUGGAUGUUUCUCAUGUAGAACAAGAAAUCUUUCUGGAAUUGAUGUUUACAUGUUGGAAUUCUCGGGUGCCAA	0.845
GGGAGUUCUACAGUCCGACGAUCGGCCUCUUAGGCCAGUGCCGGAGGAGGCAUGCUCCUCUUUCUAUGCCACAGAACAAACACUACUCUAGCAGAGCCUUUCUUGCACUUUAAAGUGAGAUUAAUUUAGCUGUUGGAAUUCUCGGGUGCCAA	0.497
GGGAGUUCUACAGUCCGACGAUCCUGUUGAUGCUUCUUUGAAAAUCUUCGCUUGAUUUUGGCUGUAAAUCACCUACCCUGUUAAAUGCUGUUUAAUCCCAAGGAUGUAAGUUGAGGUGAGGUGUCUUCUCUGUUGGAAUUCUCGGGUGCCAA	0.344
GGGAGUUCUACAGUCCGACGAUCAUACUAUGUAUACUUGAGAAUCUUUAAGCAGCAAAUUAGUCAUUUGCAUGAAGCUCCAGGAUUACAGUAAACUAAAUCAGUGCAAAAUAAAGUUUAUUUUAUAAAAGAAAUGGAAUUCUCGGGUGCCAA	0.489
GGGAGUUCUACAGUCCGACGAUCCUGAGGCAGAAGGAGGUGAGCACUUAAUCCUUUGAGCCAUGCGGUCUCUUUUACAGUCUAGAAACUGUACAUAUAUGUGAAAAGGAAAAAAAACCCUAUAUAUAUAUAUUUGGAAUUCUCGGGUGCCAA	0.967
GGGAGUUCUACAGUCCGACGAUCAACACAAUCAGGUGUGGAUUGGUGCUACUUUGAACAAAAGGUCCCCCUGUGGUCUUUUGUUCAACAUUGUACAAUGUAGAACUCUGUCCAACACUAAUUUAUUUUGUCUUUGGAAUUCUCGGGUGCCAA	0.277
